Published values of several laboratories.
Protocols differ between the studies behind these lines. Values joined by “and” are separate records of one study, mostly repeats; a detail may differ. ± marks the error that the study gave.

SMILES | test | test system | setting | scale | quantity | value
N=C(N)NCCC[C@@H]1NC(=O)[C@H](CO)NC(=O)[C@@H](NC(=O)[C@H](CO)NC(=O)[C@H](CO)NC(=O)[C@H](Cc2c[nH]c3ccccc23)NC(=O)CNC(=O)[C@H](CO)NC(=O)[C@@H](N)Cc2c[nH]c3ccccc23)CSSC[C@@H](C(=O)NCC(=O)O)NC(=O)[C@H](CO)NC1=O | – | patients, plasma | intravenous, 5 mg/kg, thrice weekly, median | – | Tmax | 6.6 min
CCN(CC)c1ccc2c(c1)O[B-]1(c3ccccc3)OC(=O)C(c3ccccc3)=N[N+]1=C2C (stereo not drawn) | – | toluene | – | – | molar absorption coefficient | 50000 M⁻¹ cm⁻¹
CCc1cnc(NC(=O)c2cc(S(=O)(=O)N3CCOCC3)ccc2N(C)C2CCCC2)s1 | – | mouse | 10 mg/kg, 3 doses | – | mean corpuscular volume | 55.7 fL
C=C[C@]1(C)C[C@@H](OC(=O)CSc2ccc(NC(=O)c3ccco3)cc2)[C@]2(C)[C@H](C)CC[C@]3(CCC(=O)[C@H]32)[C@@H](C)[C@@H]1O | – | M. gallisepticum-infected chickens, plasma | intramuscular, 40 mg/kg single dose | – | peripheral volume (V2/F) | 2.11 L/kg
CCCCN1C(=O)c2cccc3c(NCCN4CCOCC4)ccc(c23)C1=O | – | Dioxane | – | – | molar extinction coefficient | 7520 M⁻¹ cm⁻¹
Cc1ccc(OCC(=O)N(Cc2cccs2)c2ccn[nH]2)cc1 | – | rat plasma | 750 ng/mL, 15 min, 37 °C | – | remaining compound | 3.8%
C=CC(=O)Nc1cc(Nc2nccc(-c3cn(C)c4ccccc34)n2)c(OC)cc1N(C)CCNC | – | human plasma | 24 h, storage stability, LLOQ sample | – | recovery | 57.7%
CCC(C(=O)Nc1ccc(C(N)=O)c(F)c1)n1cc(OC)c(-c2cc(Cl)ccc2-n2cc(C(F)(F)F)nn2)cc1=O (stereo not drawn) | – | healthy male humans | 25 mg, ASD vs IR, fed | – | mild adverse events | 0%
C=CC(=O)Nc1cc(Nc2nccc(-c3c[nH]c4ccccc34)n2)c(OC)cc1N(C)CCN(C)C | storage stability | human plasma | 72 h, -80 °C, low QC level | – | recovery | 95.5%
Cc1cc(-c2ccc(C(=O)[C@@H]3CCCC[C@H]3C(=O)Nc3cnn4c3C(=O)NCC4)cc2)[nH]n1 | – | human, urine | oral, 200 mg, 144-168 h | reference: dose | radioactivity recovery per interval | 0.01% and < 0.01% and 0.03%
O=C(Nc1cnccc1-c1ccc([18F])nc1)c1ccnc(NC(=O)C2CC2)c1 | – | FVB/NJ mouse, both sexes, brain | intravenous, 20 min, added: tariquidar 15 mg/kg iv | – | SUV | 0.171
O=C(CCc1ccc(CNC(C(=O)O)C2CCCCC2)cn1)NO (stereo not drawn) | – | healthy male humans, plasma | oral, 20 mg, single dose | reference: fed over fasted | AUC(0-t) ratio | 1.25
C/C(N)=N/C(=N\S(=O)(=O)c1ccc(C(F)(F)F)cc1)N1C[C@H](c2ccccc2)C(c2ccc(Cl)cc2)=N1 | – | Sprague-Dawley rat male, plasma | oral, 30 mg/kg | – | oral bioavailability | 76.7%
CCCCN1C(=O)c2cccc3c(NCCCCCCCCN4CCOCC4)ccc(c23)C1=O | – | ethyl acetate | – | – | molar extinction coefficient | 12200 M⁻¹ cm⁻¹
CC(C(=O)O)n1nc(Cn2cc3cc(OCC[18F])c(Cl)cc3n2)c2ccccc2c1=O (racemic) | – | rat, brain | 1 h | – | tracer uptake | 0.01 %ID/g
Cc1nc(N)nc2c1C(=O)N[C@@H](c1ccc(F)cc1-c1cccc(OCC[18F])n1)C2 | ex vivo biodistribution | C57BL/6 mouse, whole blood | intravenous, 1 MBq, 30 min, baseline, vehicle | – | blood uptake | 5.31 ± 0.37 %ID
Cc1cc(C)nc(NC(=S)N2CCN(Cc3ccc(C(F)(F)F)cc3)CC2)c1 | – | plasma | intraperitoneal, 30 mg/kg | – | Tmax | 4.98 min
CC(C)(O)c1ncc([S@](N)(=O)=NC(=O)Nc2c3c(cc4c2CCC4)CCC3)s1 | – | human plasma | -20 °C or below | – | freeze-thaw stability | 5 cycles
COc1cccc(OC)c1-c1cc(C(=O)NC2(C(=O)O)C3CC4CC(C3)CC2C4)nn1-c1ccc(C(=O)N(C)CCOCCOCCN(C)C(=O)[C@H](CCCCNC(=O)[C@H](CC(C)C)NC(=O)C2OC2C(=O)O)NC(=O)CN2CCN(CC(=O)[O-])CCN(CC(=O)[O-])CCN(CC(=O)[O-])CC2)cc1C(C)C.[177Lu+3] (mixture of isomers) | – | mouse, HT-29 xenograft | 168 h post injection, biodistribution | reference: tumour over brain uptake | tumour-to-brain ratio | 40.6
CCC1=[N+]2N=C(c3ccccc3)C(=O)O[B-]2(c2ccccc2)Oc2cc(N(CC)CC)ccc21 (stereo not drawn) | – | toluene | – | – | molar absorption coefficient | 49000 M⁻¹ cm⁻¹

SMILES | test | test system | setting | scale | quantity | value
CCCCN1C(=O)c2cccc3c(NCCCCN4CCOCC4)ccc(c23)C1=O | – | DMF | – | – | molar extinction coefficient | 6700 M⁻¹ cm⁻¹
COCC1CN(C2CCN(c3cc(OC)c(Nc4ncc(Br)c(Nc5ccc6c(c5P(C)(C)=O)OCCO6)n4)cc3C)CC2)C1 | first-in-human trial | human | oral, 60 mg once daily | treatment-related leading to dose reduction | adverse events | 0%
O=C([O-])CN1CCN(CC(=O)[O-])CCN(CC(=O)NCC2CCC(C(=O)NC(Cc3ccc4ccccc4c3)C(=O)NCCCCC(NC(=O)NC(CCC(=O)O)C(=O)O)C(=O)O)CC2)CCN(CC(=O)[O-])CC1.[68Ga+3] (stereo not drawn) | micro-PET/CT | mouse 22Rv1 xenograft, tumour | 4 h post-injection | – | mean tumour uptake | 4.83 ± 0.46 %ID/g
CC(C)[C@H](NC(=O)[C@H](Cc1c[nH]c2ccccc12)NC(=O)[C@H](CCCNC(=N)N)NC(=O)[C@H](CCCNC(=N)N)NC(=O)[C@@H](NC(=O)[C@@H](NC(=O)[C@H](CCCNC(=N)N)NC(=O)[C@@H](NC(=O)[C@@H](NC(=O)[C@H](CCCNC(=N)N)NC(=O)[C@H](CCCNC(=N)N)NC(=O)[C@@H](NC(=O)[C@H](Cc1c[nH]c2ccccc12)NC(=O)[C@H](CCCNC(=N)N)NC(=O)[C@H](CCCNC(=N)N)NC(=O)[C@@H](NC(=O)[C@H](CCCNC(=N)N)NC(=O)[C@H](CCCNC(=N)N)NC(=O)[C@@H](NC(=O)[C@H](Cc1c[nH]c2ccccc12)NC(=O)[C@H](CCCNC(=N)N)NC(=O)[C@@H](N)CCCNC(=N)N)C(C)C)C(C)C)C(C)C)C(C)C)C(C)C)C(C)C)C(C)C)C(=O)N[C@@H](CCCNC(=N)N)C(=O)N[C@@H](CCCNC(=N)N)C(=O)O | – | CD1 mouse, urine | intravenous, 15 mg/kg, 16 h, [14C]-labelled compound | – | glucose excretion | 188 µg/day/g body weight
Nc1nc2cnc(C(=O)N3CCOC[C@@H]3c3ccc(C(F)(F)F)cc3)cc2c2c1COC2 | – | rat | oral, 2 mg/kg | – | oral bioavailability | 23%
C=CC(=O)N1CCCC(n2c(=O)c3ncccc3n(Cc3ccc(Oc4ccccc4)cc3)c2=O)C1 (stereo not drawn) | – | BALB/c mice, male, plasma | intraperitoneal, 200 mg/kg, 2 h | – | plasma concentration | 48300 ng/mL
CC(=O)N([O-])CCCCCNC(=O)CCC(=O)N([O-])CCCCCNC(=O)CCC(=O)N([O-])CCCCCN.[89Zr+4] | radio-TLC | aqueous buffer | 1 d, pH 8.5, 37 °C, 89Zr-labelled complex, added: DTPA 1000-fold excess | – | intact complex | 98.3 ± 0.7%
CCCCN1C(=O)c2cccc3c(NCCCN4CCOCC4)ccc(c23)C1=O | – | water | pH 6.0 | – | molar extinction coefficient | 10800 M⁻¹ cm⁻¹
CC(C)C[C@H](NC(=O)[C@@H](CCCCNC(=O)[C@@H](Cc1ccccc1)NC(=O)CCCCCCCNC(=O)CN1CCN(CC(=O)O)CCN(CC(=O)O)CCN(CC(=O)O)CC1)NC(=O)[C@H](Cc1ccc(O)cc1)NC(=O)[C@H](CO)NC(=O)[C@H](Cc1c[nH]c2ccccc12)NC(=O)[C@H](Cc1c[nH]cn1)NC(=O)[C@@H]1CCC(=O)N1)C(=O)N[C@@H](CCCNC(=N)N)C(=O)N1CCC[C@H]1C(=O)NCC(N)=O [indium-111 labelled] | biodistribution | male athymic nude mice, DU-145 prostate cancer xenograft, bone | intravenous, 0.037 MBq, 2 h post-injection | – | tissue uptake | 0.34 ± 0.01 %ID/g
CNC(=O)C1CCCN(C(=O)C2CC3CCC2N3C(=O)[C@@H]2C[C@@H](O)CN2C(=O)NCc2cccc(Cl)c2F)C1 (mixture of isomers) | metabolic stability | dog, liver microsomes | – | – | microsomal CLint | 6 µL/min/mg
O=C(Nc1cnccc1-c1ccc([18F])cc1)c1ccnc(NC(=O)C2CC2)c1 | PET imaging | FVB/NJ mice, both sexes, brain | intravenous, 10 min post-injection | – | SUV | 0.38
Oc1ccc([C@@H]2Oc3ccc(O)cc3[C@@H]3CCC[C@@H]32)cc1 | – | mouse, plasma | intravenous, 1 mg/kg | – | AUC(all) | 0.85 µM·h
O=C1NC2(CC2)COc2ncc(F)cc2[C@H]2COCCN2c2ccn3ncc1c3n2 | bone marrow micronucleus test | NIH mice, male | oral, 20 mg/kg/day, 3 days | – | PCE/(PCE+NCE) ratio | 0.507 ± 0.06
CC[C@H](C)[C@@H]1NC(=O)[C@H](Cc2ccc(O)cc2)NC(=O)CCCSC[C@@H](C(=O)N(CC(=O)N[C@@H](CC(C)C)C(=O)NCC(N)=O)Cc2ccc(F)cc2)NC(=O)[C@H](CC(N)=O)NC(=O)[C@H](CCC(N)=O)NC1=O | – | healthy human, plasma | intranasal, 200 µg every 3 h, after second dose | – | AUC(0-t) | 0.078 ng·h/mL
C=C(NC(=O)c1csc(-c2nc3c(cc2O)-c2nc(cs2)C(=O)NC(C(C)O)C(=O)NC(=C(C)OC)c2nc(cs2)C(=O)NC2c4nc(cs4)C(=O)NC(COC(=O)c4c5c6c(cccc6n4O)COC(=O)C(OC4CC(C)(O)C(N(C)C)C(C)O4)C2OC5)c2nc-3cs2)n1)C(N)=O (stereo not drawn) | – | ICR mice, Streptococcus pneumoniae ATCC 49169 infected, immunocompromised, blood | intravenous, 4 mg/kg/day twice daily | – | AUC(0-inf) | 235 ng·h/mL
CCCC[C@H](OC(C)=O)c1ccccc1C(=O)O | – | beagle dogs, both sexes, whole blood | intravenous, 1.5 mg/kg single dose | – | AUC(0-inf) | 1560 ± 210 ng·h/mL
CCCCN1C(=O)c2cccc3c(NCCCCCCCCCCN4CCOCC4)ccc(c23)C1=O | – | chloroform | – | – | fluorescence quantum yield | 0.91
CCC(CC)CNC(=N)NC(=N)NCCCCCCNC(=N)NC(=N)NCC(CC)CC | metabolic stability | dog, hepatocytes | 1 µM | – | scaled CLint | 62.8 mL/min/kg
Cc1ccc(-c2nc(N)c3c(Nc4ccc(F)cc4)n[nH]c3n2)cc1 | – | plasma | time not given, plasma protein binding | – | recovery | 77.8%
